Assay results pooled from the literature.
Protocols differ between the studies behind these lines.
Organism: Escherichia coli

For `CC[C@H](C)[C@H](NC(=O)[C@H](CO)NC(=O)[C@H](CO)NC(=O)[C@H](Cc1ccccc1)NC(=O)CN)C(=O)N[C@@H](Cc1ccccc1)C(=O)N[C@@H](CCCNC(=N)N)C(=O)NCC(=O)N[C@H](C(=O)N[C@@H](C)C(=O)N[C@@H](CCCCN)C(=O)N[C@@H](Cc1ccccc1)C(=O)N[C@@H](C)C(=O)N[C@@H](CO)C(=O)N[C@@H](CCCCN)C(=O)NCC(=O)N[C@@H](CC(C)C)C(=O)NCC(=O)N[C@@H](CCCCN)C(N)=O)C(C)C`, the MIC was > 128 µM (ATCC 8739; pretreated trypsin 0.25 mg/mL).
With `CC(C)C[C@@H]1NC(=O)[C@H](C)NC(=O)[C@H](NC(=O)[C@H](CO)NC(=O)[C@@H](CCCCN)NC(=O)[C@@H](C)NC(=O)[C@@H](N)Cc2ccccc2)[C@H](C(N)=O)OC(=O)[C@H](CC(C)C)NC1=O` the MIC was > 32 µg/mL (ATCC 10798; TFA salt).
With `CC(C)[C@H](NC(=O)[C@@H](NC(=O)[C@H](CCCCN)NC(=O)CNC(=O)[C@@H](NC(=O)[C@@H](NC(=O)[C@H](CO)NC(=O)[C@@H](NC(=O)[C@@H](NC(=O)[C@@H]1CCCN1C(=O)[C@@H](NC(=O)[C@@H](NC(=O)CN)C(C)C)C(C)C)C(C)C)C(C)C)C(C)C)C(C)C)C(C)C)C(N)=O` the MIC was > 100 µM (broth microdilution; K12).
With `CCCCCCCCCCCCCC(=O)N[C@H](CCN)C(=O)N[C@@H]1C(=O)N[C@@H](CCN)C(=O)N[C@@H](CC(C)C)C(=O)N[C@@H](CCN)C(=O)N[C@H](Cc2ccccc2)C(=O)N[C@@H](CC(C)C)C(=O)N[C@@H](CCN)C(=O)N[C@H](CCN)C(=O)N[C@@H](C(C)C)C(=O)N[C@@H](CC(=O)O)C(=O)O[C@@H]1C` the MIC was 2 µg/mL (broth microdilution; ATCC 25922).
`O=C(NC12CC3CC(CC(C3)C1)C2)c1cc2cc(Cl)ccc2[nH]1` gave an MIC of > 64 µM (broth microdilution; 3).
With `CC[C@H](C)[C@H](NC(=O)[C@H](CCCCNC(=N)N)NC(=O)[C@H](CC(N)=O)NC(=O)[C@H](CC(C)C)NC(=O)[C@H](Cc1ccccc1)NC(=O)[C@H](CCCCNC(=N)N)NC(=O)[C@H](CCCCNC(=N)N)NC(=O)[C@H](CC(C)C)NC(=O)[C@H](CC(C)C)NC(=O)[C@H](CCCCNC(=N)N)NC(=O)[C@H](CCCCNC(=N)N)NC(=O)[C@H](CC(C)C)NC(=O)CNC(C)=O)C(=O)N[C@@H](CCCCNC(=N)N)C(=O)N[C@@H](CCCCNC(=N)N)C(N)=O` the MIC was 3.12 µM (broth microdilution; ATCC 25922).
`CCCCCCCCC/C=C\CCCc1cc(=O)c2ccccc2n1C` gave an MIC of > 1000 µg/mL (broth microdilution; Luria-Bertani broth).
For `O=C(NCCNCCO)c1cn(Cc2ccccc2)c2cc(OCc3ccc(C(F)(F)F)cc3)c(Cl)cc2c1=O`, the MIC was > 32 µg/mL (ATCC 25922; ≥80% growth inhibition).
`CC(C)C[C@@H]1NC(=O)[C@@H](CC(C)C)NC(=O)[C@H](CCN)NC(=O)[C@@H](NC(=O)[C@H](CCN)NC(=O)[C@@H](N)[C@@H](C)O)CCNC(=O)[C@H]([C@@H](C)O)NC(=O)[C@H](CCN)NC(=O)[C@H](CCN)NC1=O` gave an MIC of > 64 µg/mL (broth microdilution; MCR2, colistin-resistant, mcr plasmid, CAMHB with polysorbate-80; 16 h, 37 °C, with: 0.002% polysorbate-80).
For `CCCCCCSCC1OC(OC2C(N)CC(N)C(OC3OC(CN)C(O)CC3N)C2O)C(O)C(N)C1O` (centres unmarked), the MIC was > 150 µg/mL (BL21(DE3)).
With `N=C(N)NCCC[C@@H]1NC(=O)[C@H](CCCNC(=N)N)NC(=O)[C@H](CCCNC(=N)N)NC(=O)[C@H](CCCNC(=N)N)NC(=O)[C@H](Cc2c[nH]c3ccccc23)NC(=O)[C@H](CCCNC(=N)N)NC(=O)[C@H](CCCNC(=N)N)NC(=O)[C@@H](N)CCn2cc(nn2)C[C@@H](C(N)=O)NC1=O` the MIC was 125 µg/mL (ATCC 25922; 24 h, 37 °C).
`Cc1c2oc3c(C)ccc(C(=O)N[C@@H]4C(=O)N[C@H](C(C)C)C(=O)N5[C@H](C(=O)N(C)CC(=O)N(C)[C@@H](C(C)C)C(=O)O[C@@H]4C)[C@@H](O)C[C@@H]5C)c3nc-2c(C(=O)N[C@@H]2C(=O)N[C@H](C(C)C)C(=O)N3CC(=O)C[C@H]3C(=O)N(C)CC(=O)N(C)[C@@H](C)C(=O)O[C@@H]2CO)c(N)c1=O` has an MIC of > 9.33 µg/mL (broth microdilution; ATCC 12435; 16 to 48 h).
`Cc1cc(N)c2cc(NC(=O)c3ccc4cc(C(=O)N5CCN(C)CC5)ccc4c3)ccc2n1` gave an MIC of > 200 µM (ΔtolC efflux-deficient).
`CCCCCCCCCCCCCCCC(=O)N[C@@H](CCCCN)C(=O)N[C@@H](CCCCN)C(=O)N[C@@H](CCCCN)C(=O)N[C@@H](CCCCN)C(=O)N[C@@H](CCCCN)C(N)=O` has an MIC of 8 µg/mL (broth microdilution; K12; 16-24 h, 37 °C, prepared at pH 7).
For `CCC(O)CC#Cc1ccc(-n2nnc(/C(C)=N\NC(=N)N)c2C)cc1` (centres unmarked), the MIC was > 64 µg/mL (broth microdilution; JW55031 tolC mutant).
With `Cc1cccc(C)c1SCC1OC(OC2C(N)CC(N)C(OC3OC(CN)C(O)CC3N)C2O)C(O)C(N)C1O` (centres unmarked) the MIC was 18.8 µg/mL (MC1061).
The MIC of `C[C@@](O)(C(F)F)[C@H](NC(=O)c1ccc(C#CC#CC2CC2)cc1)C(=O)NO` is reported as 0.014 µg/mL (broth microdilution; W3110, CAMHB).
`CC1C(=NOCc2cc(-c3ccc(Cl)cc3)no2)C(C)C(c2ccc(Br)cc2)OC1c1ccc(Br)cc1` (centres unmarked) gave an MIC of 12.5 µg/mL (microbial growth, broth dilution; MTCC443; 24 h).
Under MIC, `CCCCCCCCCCCCCCC(=O)O.O=C1CCCC2C3CCCN4CCCC(CN12)C34` (centres unmarked) is recorded as “inactive” (bacterial growth, broth dilution; ATCC 25922).
The MIC of `CCCCCCCCCCCCCCCC(=O)N[C@@H](CCCCN)C(=O)N[C@@H](CCCCN)C(=O)N[C@@H](CCCCN)C(=O)N[C@@H](CCCCN)C(N)=O` is reported as 16 µg/mL (broth microdilution; K12, water pH 7; 18 h, 37 °C).
With `CCCCCCCCCCCCCCCCCCSCC1OC(OC2C(N)CC(N)C(OC3OC(CN)C(O)CC3N)C2O)C(O)C(N)C1O` (centres unmarked) the MIC was > 150 µg/mL (MC1061).
`Cc1cc(N)c2cc(NC(=O)c3ccc4c(-c5cccc(O)c5)cccc4c3)ccc2n1` has an MIC of > 200 µM (hyperporinated ΔtolC).
`CCn1cc(C(=O)NCCCCCC(=O)N[C@@H](CCCNC(=N)N)C(=O)N[C@@H](CCCNC(=N)N)C(=O)N[C@@H](Cc2c[nH]c3ccccc23)C(=O)N[C@@H](CCC(N)=O)C(=O)N[C@@H](Cc2c[nH]c3ccccc23)C(=O)N[C@@H](CCCNC(=N)N)C(N)=O)c(=O)c2cc3c(cc21)OCO3` gave an MIC of 75 µM (broth microdilution; ATCC 25922; 24 h, 37 °C).
`CC[C@H](C)[C@H](NC(=O)[C@@H](Cc1ccccc1)NC)C(=O)N[C@@H](CO)C(=O)N[C@H](CCC(N)=O)C(=O)N[C@@H](C(=O)N[C@H](C(=O)OC[C@H](N)C(=O)N[C@H]1C(=O)N[C@@H](C)C(=O)N[C@@H](C2CCCCC2)C(=O)N[C@@H]([C@@H](C)CC)C(=O)O[C@H]1C)[C@@H](C)CC)[C@@H](C)CC` has an MIC of > 8 µg/mL (broth microdilution; ATCC 10798, Mueller-Hinton broth; 16 h, 37 °C).
`CC[C@H](C)[C@H](N)C1=N[C@H](C(=O)N[C@@H](Cc2ccccc2)C(=O)N[C@H](CCC(=O)O)C(=O)N[C@H](C(=O)N[C@H]2CCCCNC(=O)[C@H](CC(N)=O)NC(=O)[C@@H](CC(=O)O)NC(=O)[C@H](Cc3c[nH]cn3)NC(=O)[C@@H](Cc3ccccc3)NC(=O)[C@H]([C@@H](C)CC)NC(=O)[C@@H](CCCN)NC2=O)[C@@H](C)CC)CS1` gave an MIC of > 64 µg/mL (broth microdilution; ATCC 25922, LB medium; 18 h, 37 °C, with: ZnSO4 0.3 mM).
For `CCCO[C@H]1[C@H](O)[C@@H](N)[C@@H](O[C@H]2[C@H](O[C@@H]3O[C@H](CO)[C@@H](O[C@H]4O[C@@H](CN)[C@@H](O)[C@H](O)[C@H]4N)[C@H]3O)[C@@H](O)[C@H](N)C[C@@H]2N)O[C@@H]1CO`, the MIC was 32 µg/mL (broth microdilution; clinical isolate AG 055).

For quick reference, copied from above:
`Cc1cc(N)c2cc(NC(=O)c3ccc4c(-c5cccc(O)c5)cccc4c3)ccc2n1` has an MIC of > 200 µM (hyperporinated ΔtolC).
`CCn1cc(C(=O)NCCCCCC(=O)N[C@@H](CCCNC(=N)N)C(=O)N[C@@H](CCCNC(=N)N)C(=O)N[C@@H](Cc2c[nH]c3ccccc23)C(=O)N[C@@H](CCC(N)=O)C(=O)N[C@@H](Cc2c[nH]c3ccccc23)C(=O)N[C@@H](CCCNC(=N)N)C(N)=O)c(=O)c2cc3c(cc21)OCO3` gave an MIC of 75 µM (broth microdilution; ATCC 25922; 24 h, 37 °C).
